Published values pooled from the literature.
Every numbered part comes from another study and shows a few of its results, in no order. Substitutions count along the parent as printed.

Set 1 — technique: RNA Bind-n-Seq; form: RNA; sample: in vitro; tested at: 200 nM; setting: whole 134-nt RNA, ends assumed; added: 150 mM KCl; reference: input library; reading: higher = stronger binding
Target: Fragile X messenger ribonucleoprotein 1, C-terminal low-complexity region (Fmr1, Mus musculus, UniProt P35922)
Sequence | log2 enrichment
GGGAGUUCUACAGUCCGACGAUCUGGCCCUGGUGGCAUGCGGGGAGGAAGAGGUGGCCUCAUGGAUCGUGGUGGUCCCGGUGGAAUGUUCAGCGGUGGCCGUGGUGGAGACAGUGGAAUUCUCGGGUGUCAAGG | -0.142
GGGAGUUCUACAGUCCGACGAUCACCAUGCAGGGGGGCAUCUUUGGGAAGUGGGGCAAGGGGGGGAUAGGGAGGGGGGUAACACUUUGGGAACAGGUGGUCCCAGGUCGUUUCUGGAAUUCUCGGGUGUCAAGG | 0.665
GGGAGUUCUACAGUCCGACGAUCUGGGAGGUGGAUUUUGUUUAUUUUUUUAGCUCAUUUCCAGGGGUGGGAAUUUUUUUUUAAUAUGUGUCAUGAAUAAAGUUGUUUUUGAAAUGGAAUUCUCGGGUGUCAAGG | -0.304
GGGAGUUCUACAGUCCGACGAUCGUCCUGUGCUACACAUCGUAUGUACCGAAUCGGGCCCCCCGGCCCCCCGGCCCCCCGGGAAAGUAUUAUGUUACGCCGUUCGGAUCUGCAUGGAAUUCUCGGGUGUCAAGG | -0.209
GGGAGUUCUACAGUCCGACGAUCUAACUUUAGAGGAGGAUCUGAUGGAUAUGGCAGUGGACGUGGAUUUGGGGAUGGCUAUAUUGGGUAUGGAGGAGGACCUGGAGGUGGCAAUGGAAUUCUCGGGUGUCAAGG | 0.281
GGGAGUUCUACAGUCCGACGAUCAGUCCUGUGCUACACAUCGUAUGUACCGAAUCGGGCCCCCGGCCCCCGGGCCCCCGGGAAAGUAUUAUGUUACGCCGUUCGGAUCUGCACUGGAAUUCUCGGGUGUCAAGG | -0.819
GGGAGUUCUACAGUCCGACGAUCAAGUCCUGUGCUACACAUCGUAUGUACCGAAUCGGGUUUGGGUUUGGGGUUUGGGGAAAGUAUUAUGUUACGCCGUUCGGAUCUGCACUUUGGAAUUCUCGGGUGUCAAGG | 0.837
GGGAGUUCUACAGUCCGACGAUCGUCCUGUGCUACACAUCGUAUGUACCGAAUCGGGCCCCCGGGCCCCCGGGCCCCCGGGAAAGUAUUAUGUUACGCCGUUCGGAUCUGCACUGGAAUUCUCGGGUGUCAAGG | -0.837
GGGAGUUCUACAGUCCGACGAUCGUCCUGUGCUACACAUCGUAUGUACCGAAUCGGGGUUUUUUUGGGGUUUGGGGAGGGGAAAGUAUUAUGUUACGCCGUUCGGAUCUGCACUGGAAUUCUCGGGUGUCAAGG | 0.53
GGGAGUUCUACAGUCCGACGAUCGCCACCAUGCCCACCUAGUUUUUGCAUUUUUAGUGGAGGUGUGGUUUCACUGUGUUGGCCAGGCUGGUCUCUUAACUCCUGACCUCAGGUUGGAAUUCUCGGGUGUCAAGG | -0.0233

Set 2 — technique: universal PBM; form: double-stranded DNA, one strand shown; sample: in vitro; tested at: 600 nM; reading: higher = stronger binding
Target: Sal-like protein 4, full length isoform A (SALL4, Homo sapiens, UniProt Q9UJQ4, residues 1-1053)
Chain of UniProt Q9UJQ4 (whole entry, looked up): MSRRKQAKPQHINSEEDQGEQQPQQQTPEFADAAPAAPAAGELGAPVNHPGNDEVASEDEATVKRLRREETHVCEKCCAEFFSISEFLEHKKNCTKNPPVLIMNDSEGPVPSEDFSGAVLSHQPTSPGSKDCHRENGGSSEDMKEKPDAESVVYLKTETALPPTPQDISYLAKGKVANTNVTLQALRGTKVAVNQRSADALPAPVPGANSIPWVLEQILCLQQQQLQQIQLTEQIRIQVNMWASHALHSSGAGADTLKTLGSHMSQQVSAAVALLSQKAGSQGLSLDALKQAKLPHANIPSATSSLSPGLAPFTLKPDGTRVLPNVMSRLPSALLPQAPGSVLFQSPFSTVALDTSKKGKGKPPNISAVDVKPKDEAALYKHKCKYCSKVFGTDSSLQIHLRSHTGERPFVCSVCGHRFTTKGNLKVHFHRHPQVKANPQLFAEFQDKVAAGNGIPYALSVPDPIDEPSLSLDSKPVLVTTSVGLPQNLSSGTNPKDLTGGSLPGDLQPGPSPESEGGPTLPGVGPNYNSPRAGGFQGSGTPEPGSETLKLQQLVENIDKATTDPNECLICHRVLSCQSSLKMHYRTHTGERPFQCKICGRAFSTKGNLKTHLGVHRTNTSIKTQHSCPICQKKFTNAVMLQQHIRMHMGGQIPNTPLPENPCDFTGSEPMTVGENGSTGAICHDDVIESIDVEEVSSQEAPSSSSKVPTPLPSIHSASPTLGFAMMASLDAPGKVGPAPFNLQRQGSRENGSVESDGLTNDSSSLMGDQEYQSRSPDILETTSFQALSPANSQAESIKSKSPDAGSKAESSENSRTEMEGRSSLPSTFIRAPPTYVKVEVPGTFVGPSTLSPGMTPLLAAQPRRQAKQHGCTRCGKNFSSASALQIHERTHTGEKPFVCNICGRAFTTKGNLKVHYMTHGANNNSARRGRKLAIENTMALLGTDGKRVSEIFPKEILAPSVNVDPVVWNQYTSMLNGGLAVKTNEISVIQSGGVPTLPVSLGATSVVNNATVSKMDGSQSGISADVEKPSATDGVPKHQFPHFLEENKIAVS
Setting: 8-mer, flanks averaged, mean of replicates
Sequence | E-score
GTCGTAAC | 0.0823
GACAACAC | -0.119
CACGTCAG | -0.159
ATCGCTTC | 0.105
CGGCAATC | -0.283
CGCCCGGA | -0.359
GAGCATTA | 0.122
ACAGAGAC | -0.00445
CAGAGTTA | -0.0369
CACTACTA | 0.0279
CATCGTGC | -0.147
CAGGGACG | -0.179
AAGCATAA | 0.301
CAGCGATA | 0.0468
AGGCGATG | -0.141
CTCAATAA | 0.27
GGGAAACA | -0.0249
AGCGTCAA | 0.0492
CCCAGTTC | -0.161
AAAAACTC | 0.116
CCATTGTC | 0.0137
GCACACAA | -0.0432
GACCGAAC | -0.0663

Set 3 — target: CCNA1, cyclin fold, Cln2 fusion (human); technique: yeast growth competition, sequencing; sample: yeast; setting: weak parent motif; reference: not given; reading: higher = stronger binding
Starting sequence: LLGL2 docking peptide (human); KSLKKSLRQSFRR; partner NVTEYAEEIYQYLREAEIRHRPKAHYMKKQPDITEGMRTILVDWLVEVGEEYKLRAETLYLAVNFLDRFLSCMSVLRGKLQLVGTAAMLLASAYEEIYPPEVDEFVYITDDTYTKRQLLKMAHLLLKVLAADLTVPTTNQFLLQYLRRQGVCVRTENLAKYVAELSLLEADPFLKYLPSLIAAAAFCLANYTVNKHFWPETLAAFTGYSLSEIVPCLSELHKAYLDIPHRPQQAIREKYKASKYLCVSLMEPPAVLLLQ
Substitution | normalised enrichment score
KSLKKSLRQSARR [F11A] | 0.601
KALKKSLRQSFRR [S2A] | 0.385
KSLAKSLRQSFRR [K4A] | -0.0732
KSLKKALRQSFRR [S6A] | -0.351
KSLKASLRQSFRR [K5A] | -0.252
KSLKKSLAQSFRR [R8A] | -0.457

Set 4 — technique: protein-binding microarray; form: double-stranded DNA, one strand shown; sample: in vitro; tested at: 2540 nM top; setting: 60-bp whole probe; added: salmon DNA 0.4 mg/ml; reference: random background probes; reading: higher = stronger binding; all sequences stand within: GCCTAGCAC … GTCTTGATTCGCTTGACGCTGCTG
Target: Interferon regulatory factor 3, full length, phosphomimetic (IRF3, Homo sapiens, UniProt Q14653, residues 1-427, S386D/S396D/S398D/S402D/T404D/S405D)
Construct (chain): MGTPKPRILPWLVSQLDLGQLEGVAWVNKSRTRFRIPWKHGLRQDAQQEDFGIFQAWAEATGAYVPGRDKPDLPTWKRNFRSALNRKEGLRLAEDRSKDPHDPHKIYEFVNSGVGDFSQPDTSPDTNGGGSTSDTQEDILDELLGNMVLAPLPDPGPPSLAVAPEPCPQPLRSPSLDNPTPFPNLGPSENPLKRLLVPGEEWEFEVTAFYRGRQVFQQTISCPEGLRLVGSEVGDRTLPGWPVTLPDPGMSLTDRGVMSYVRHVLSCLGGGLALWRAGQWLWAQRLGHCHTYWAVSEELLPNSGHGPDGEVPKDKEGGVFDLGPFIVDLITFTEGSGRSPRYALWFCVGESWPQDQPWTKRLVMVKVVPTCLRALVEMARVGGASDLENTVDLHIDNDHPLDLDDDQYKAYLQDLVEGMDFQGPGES
Sequence | fitted relative affinity [z-score]
GACGAACAGAGTTTCGAGACGTGCTAG | 1.23
TTAGGTATCGACAGTGGGTTAGTGCTA | -0.423
AACGGTATCGACACTGGGGACGTGCTA | 0.627
GACGGTTTCGACACTGGGAACGTGCTA | 3.15
TTAGGTTTCGGTATCAGTTAGTGCTAG | 8.38
GTATATACACTTATGACTTTGTGCTAG | 0.355
CGTACTGTATCTAGCCTTGCGTGCTAG | 1.2
GACGATTGCAGTATCGAGACGTGCTAG | 0.825
TCATCTTTCTCTGCTACCACTGTGCTA | 1.9
GTAGGTATCGACTATCGGTTAGTGCTA | 0.464
TCAAATTGTCCTTTCACACTGTGCTAG | 2.39
GACGATATCGGACTGGAGACGTGCTAG | 0.363
GAGGATTCCAGTTTCGAGACGTGCTAG | 3.42
TCAGGTTTCGACTATCGGTTAGTGCTA | 2.68
GACGAACTGAGTATCCAGACGTGCTAG | 0.52
GACGGTTGCGGTCTCGGGACGTGCTAG | 4
TTAGCACTGCTTATCCTTTAGTGCTAG | -0.106
TCAGAATTTACTTTCTACGTGTGCTAG | 1.35
AAATTCTGATATAATTCAAAGTGCTAG | 0.797
GACGGTAGCCTTATCCTGACGTGCTAG | 0.837
GACGGACTGGGGTATCGGGCCGTGCTA | -0.901
TTAGGACTGCTTTTCCTTGAGTGCTAG | -0.103

Repeated from above (set 1):
Sequence | log2 enrichment
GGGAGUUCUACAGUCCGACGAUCUAACUUUAGAGGAGGAUCUGAUGGAUAUGGCAGUGGACGUGGAUUUGGGGAUGGCUAUAUUGGGUAUGGAGGAGGACCUGGAGGUGGCAAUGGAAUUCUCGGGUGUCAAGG | 0.281
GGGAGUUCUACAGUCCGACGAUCUGGGAGGUGGAUUUUGUUUAUUUUUUUAGCUCAUUUCCAGGGGUGGGAAUUUUUUUUUAAUAUGUGUCAUGAAUAAAGUUGUUUUUGAAAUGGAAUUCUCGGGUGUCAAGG | -0.304
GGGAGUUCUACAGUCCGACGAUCAAGUCCUGUGCUACACAUCGUAUGUACCGAAUCGGGUUUGGGUUUGGGGUUUGGGGAAAGUAUUAUGUUACGCCGUUCGGAUCUGCACUUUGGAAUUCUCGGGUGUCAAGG | 0.837
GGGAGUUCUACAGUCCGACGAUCGUCCUGUGCUACACAUCGUAUGUACCGAAUCGGGCCCCCCGGCCCCCCGGCCCCCCGGGAAAGUAUUAUGUUACGCCGUUCGGAUCUGCAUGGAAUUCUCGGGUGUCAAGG | -0.209
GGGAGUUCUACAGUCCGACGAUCAGUCCUGUGCUACACAUCGUAUGUACCGAAUCGGGCCCCCGGCCCCCGGGCCCCCGGGAAAGUAUUAUGUUACGCCGUUCGGAUCUGCACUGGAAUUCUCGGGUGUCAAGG | -0.819
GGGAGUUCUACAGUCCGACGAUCGUCCUGUGCUACACAUCGUAUGUACCGAAUCGGGCCCCCGGGCCCCCGGGCCCCCGGGAAAGUAUUAUGUUACGCCGUUCGGAUCUGCACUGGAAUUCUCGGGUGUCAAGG | -0.837
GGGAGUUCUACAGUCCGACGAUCACCAUGCAGGGGGGCAUCUUUGGGAAGUGGGGCAAGGGGGGGAUAGGGAGGGGGGUAACACUUUGGGAACAGGUGGUCCCAGGUCGUUUCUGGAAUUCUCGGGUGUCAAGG | 0.665
